Results gathered from unrelated publications.
± marks the error that the study gave.

For `N=C(N)NCCC[C@@H]1NC(=O)[C@H](CCCCN)NC(=O)[C@@H](Cc2ccc(O)cc2)NC(=O)[C@H](CC(=O)O)NC(=O)CNC1=O`, the IC50 was 1.1 ± 0.2 µM (U-87 MG; cell adhesion to vitronectin; 2 h, 37 °C).
`COc1cccc2c1C(=O)c1c(O)c3c(c(O)c1C2=O)C[C@@](O)(C(=O)CO)C[C@@H]3O[C@H]1C[C@H](NC(=O)CCN2C(=O)CC(SC[C@H](N)C(=O)N3CCC[C@H]3C(=O)N[C@@H](CCCCN)C(=O)N[C@@H](CCCCN)C(=O)N[C@@H](CCCCN)C(=O)N[C@@H](CCCNC(=N)N)C(=O)N[C@@H](CCCCN)C(=O)N[C@H](C(N)=O)C(C)C)C2=O)[C@H](O)[C@H](C)O1` (some centres unmarked) gave an IC50 of 1.21 ± 0.25 µM (MCF7, doxorubicin-sensitive; cytotoxicity, CCK-8; 96 h).
`NC1CCCCC1N.O=C1[O][Pt]([O]C(=O)c2ccc(P(c3ccccc3)c3ccccc3)cc2)([O]C(=O)c2ccc(P(c3ccccc3)c3ccccc3)cc2)[O]C1=O.[Cl][Au].[Cl][Au]` has an IC50 of 5.42 µM (T24; cell growth or viability, resazurin; 72 h).
With `CC(=O)N[C@@H](Cc1c[nH]cn1)C(=O)N[C@@H](C)C(=O)N1CCC[C@H]1C(=O)N1CCC[C@H]1C(=O)N[C@@H](CC(C)C)C(=O)N[C@@H](Cc1c[nH]cn1)C(=O)N[C@@H](CO)C(=O)N[C@H](C(=O)N[C@@H](C)C(N)=O)[C@@H](C)OP(=O)(O)O` the IC50 was 0.84 µM (U-266; cell growth or viability, MTT; 72 h).
`C[C@H]1[C@H](OC(=O)CCC(=O)OCCc2ccc(OC(=O)CCC(=O)O[C@@H]3O[C@@H]4O[C@@]5(C)CC[C@H]6[C@H](C)CC[C@@H]([C@H]3C)[C@@]46OO5)cc2)O[C@@H]2O[C@@]3(C)CC[C@H]4[C@H](C)CC[C@@H]1[C@@]24OO3` gave an IC50 of 32.8 µM (SK-MEL3; cell growth or viability, MTT; 24 h).
`CC[C@H](C)[C@H](NC(=O)[C@H](Cc1ccc(O)cc1)NC(=O)[C@@H]1CCCN1C(=O)[C@H](C)NC(=O)[C@H](CC(C)C)NC(=O)[C@H](C)NC(=O)CCCCCNC(=O)[C@H](Cc1ccc(O)cc1)NC(=O)[C@H](Cc1c[nH]cn1)NC(=O)[C@H](CCSC)NC(=O)[C@H](CCSC)NC(=O)[C@H](CC(=O)O)NC(=O)[C@@H]1CCCN1C(=O)[C@@H]1CCCN1C(=O)[C@H](Cc1c[nH]c2ccccc12)NC(=O)[C@H](CO)NC(=O)[C@@H](NC(=O)[C@H](Cc1ccc(O)cc1)NC(=O)[C@H](Cc1ccc(O)cc1)NC(C)=O)C(C)C)C(=O)N1CCC[C@H]1C(=O)N[C@@H](Cc1ccc(O)cc1)C(=O)NCC(=O)N[C@@H](CCCNC(=N)N)C(=O)N[C@@H](CCCCN)C(=O)N[C@@H](CCCCN)C(=O)N[C@@H](CCCNC(=N)N)C(=O)N[C@@H](CCCNC(=N)N)C(=O)N[C@@H](CCC(N)=O)C(=O)N[C@@H](CCCNC(=N)N)C(=O)N[C@@H](CCCNC(=N)N)C(=O)N[C@@H](CCCNC(=N)N)C(N)=O` has an IC50 of 10.3 µM (CT26; cell growth or viability, CCK-8).
With `CCOC(=O)[C@@H]1Cc2c(cc([N+](=O)[O-])cc2[N+](=O)[O-])[C@H](O)[C@]12C(=O)Nc1ccc(Cl)cc12` (single isomer, unassigned) the IC50 was 12.6 µM (U-251; cell growth or viability, MTT; 24 h).
The IC50 of `CC(C)C[C@H](NC(=O)[C@H](CC(C)C)NC(=O)[C@H](CCC(=O)O)NC(=O)[C@H](CCC(=O)O)NC(=O)[C@H](CC(C)C)NC(=O)[C@H](Cc1c[nH]cn1)NC(=O)[C@H](Cc1c[nH]cn1)NC(=O)[C@H](CC(C)C)NC(=O)[C@H](CC(C)C)NC(=O)[C@H](CCC(=O)O)NC(=O)[C@H](CCC(=O)O)NC(=O)[C@@H](N)CC(C)C)C(=O)N[C@@H](Cc1c[nH]cn1)C(=O)N[C@@H](Cc1c[nH]cn1)C(N)=O` is reported as over 100 µM (4T1; cell growth or viability, MTT; pH 7.4).
With `C[C@H]1C(OCCCC[P+](c2ccccc2)(c2ccccc2)c2ccccc2)O[C@@H]2O[C@@]3(C)CCC4[C@H](C)CCC1[C@]42OO3` (some centres unmarked) the IC50 was 0.357 µM (T24; cell growth or viability, MTT; 72 h).
`COc1ccc(/C=C/C(=O)CC(=O)/C=C/c2ccc(OC)c(OC)c2)cc1OC` has an IC50 of 16.8 µM (human Glioma cell; cell growth or viability, MTS; 24 h).
`CC(C)C[C@H](NC(=O)[C@H](CCCCN)NC(=O)[C@H](CC(C)C)NC(=O)[C@H](CC(C)C)NC(=O)[C@H](CCCCN)NC(=O)[C@H](CCCCN)NC(=O)[C@H](CC(C)C)NC(=O)[C@H](CC(C)C)NC(=O)[C@H](CCCCN)NC(=O)[C@H](CC(C)C)NC(=O)[C@H](CC(C)C)NC(=O)[C@H](CCCCN)NC(=O)[C@H](CCCCN)NC(=O)[C@@H](N)CC(C)C)C(N)=O` gave an IC50 of 11.2 µM (4T1; cell growth or viability, MTT; pH 7.4).
`CCCC1(CN2c3ccccc3Sc3ccccc32)CCN(CC)C1` (centres unmarked) gave an IC50 of 13.7 µM (Vero 76; cell growth or viability, neutral red).
`C[C@H]1[C@H](OCCc2ccc(O)cc2)O[C@@H]2O[C@@]3(C)CC[C@H]4[C@H](C)CC[C@@H]1[C@@]24OO3` has an IC50 of 10.6 µM (SK-MEL3; cell growth or viability, MTT; 24 h).
`CC(C)[C@@H]1NC(=O)[C@H](C)OC(=O)[C@@H](C(C)C)NC(=O)[C@@H](C(C)C)OC(=O)[C@H](C(C)C)NC(=O)[C@H](C)OC(=O)[C@@H](C(C)C)NC(=O)[C@@H](C(C)C)OC(=O)[C@H](C(C)C)NC(=O)[C@H](C)OC(=O)[C@@H](C(C)C)NC(=O)[C@H](C)OC1=O` gave an IC50 of 0.5 µM (U-251; cell growth or viability, SRB; 72 h).
`OC[C@H]1[C@@H](O)[C@@H](O)CN1Cc1ccccc1` gave an IC50 of 107 µM (K562-Tax; cell growth or viability, MTS; 72 h).
The IC50 of `Cc1cc(Nc2nc(C[C@@]3(C(=O)O)CCN(Cc4cccc(Cl)c4F)[C@H](C)C3)cc(C)c2F)[nH]n1` is reported as 0.0544 µM (NCI-H1975; cell growth or viability, ATP luminescence; 5 days).
`CC1OC(OC2CCC3(C)C(CCC4C3CCC3(C)C(C5=CC(=O)OC5)CCC43O)C2)C(O)C(O)C1OC1OC(CO)C(O)C(O)C1O` (centres unmarked) gave an IC50 of 0.29 µM (BEAS-2B; cell growth or viability, MTT; 48 h).
The IC50 of `Cc1cc(C)c(N2CCN(c3c(C)cc(C)cc3C)C2=[Se])c(C)c1.[Cl][Au]` is reported as 0.6 ± 0.1 µM (H157 lung carcinoma cells; cell viability, MTT; 72 h).
`C1N2CN3CN1CP(C2)C3.CC(C)OC(=O)C(n1cccn1)n1cccn1.F[P-](F)(F)(F)(F)F.[Cu+]` has an IC50 of 21.8 ± 3.4 µM (LoVo OXP, oxaliplatin-resistant; MTT; 72 h).
`C1CCN(C2CCNCC2)CC1.CCCC(CCC)C(=O)[O][Pt]([OH])([Cl])[Cl].CCCCN` has an IC50 of 11.5 µM (seven cancer cell lines; cytotoxicity; mean over panel).
With `C[C@@H]1N=C(c2ccccc2)c2cc(C#CCCCC(=O)NO)ccc2N(C)C1=O` the IC50 was 4.5 µM (U-937; apoptosis, flow cytometry; 48 h).
`CC(N)C(O)CCCCCCCCCCCCCCC(=O)CCCCCCCC(O)C(C)N` (centres unmarked) has an IC50 of 95.8 µM (MCF-12A; cell growth or viability, resazurin; 96 h).
`CCC(C)C1OC(=O)C(NC(=O)c2cccc(NC=O)c2O)C(C)OC(=O)C(C(C)CC)OC(=O)C(C)(C)C(=O)C(Cc2ccccc2)OC1=O` (centres unmarked) gave an IC50 of over 50 µM (NCM460; cell growth or viability, CCK-8; 72 h).

Excerpt of the above:
For `N=C(N)NCCC[C@@H]1NC(=O)[C@H](CCCCN)NC(=O)[C@@H](Cc2ccc(O)cc2)NC(=O)[C@H](CC(=O)O)NC(=O)CNC1=O`, the IC50 was 1.1 ± 0.2 µM (U-87 MG; cell adhesion to vitronectin; 2 h, 37 °C).
`COc1cccc2c1C(=O)c1c(O)c3c(c(O)c1C2=O)C[C@@](O)(C(=O)CO)C[C@@H]3O[C@H]1C[C@H](NC(=O)CCN2C(=O)CC(SC[C@H](N)C(=O)N3CCC[C@H]3C(=O)N[C@@H](CCCCN)C(=O)N[C@@H](CCCCN)C(=O)N[C@@H](CCCCN)C(=O)N[C@@H](CCCNC(=N)N)C(=O)N[C@@H](CCCCN)C(=O)N[C@H](C(N)=O)C(C)C)C2=O)[C@H](O)[C@H](C)O1` (some centres unmarked) gave an IC50 of 1.21 ± 0.25 µM (MCF7, doxorubicin-sensitive; cytotoxicity, CCK-8; 96 h).
`CC(C)C[C@H](NC(=O)[C@H](CCCCN)NC(=O)[C@H](CC(C)C)NC(=O)[C@H](CC(C)C)NC(=O)[C@H](CCCCN)NC(=O)[C@H](CCCCN)NC(=O)[C@H](CC(C)C)NC(=O)[C@H](CC(C)C)NC(=O)[C@H](CCCCN)NC(=O)[C@H](CC(C)C)NC(=O)[C@H](CC(C)C)NC(=O)[C@H](CCCCN)NC(=O)[C@H](CCCCN)NC(=O)[C@@H](N)CC(C)C)C(N)=O` gave an IC50 of 11.2 µM (4T1; cell growth or viability, MTT; pH 7.4).
